Results of several laboratories.
Every numbered part comes from another study and shows a few of its results, in no order. Substitutions count along the parent as printed.

Study 1
Target: Sal-like protein 4, full length isoform A (SALL4, Homo sapiens, UniProt Q9UJQ4, residues 1-1053)
Sequence of UniProt Q9UJQ4 (whole entry, looked up): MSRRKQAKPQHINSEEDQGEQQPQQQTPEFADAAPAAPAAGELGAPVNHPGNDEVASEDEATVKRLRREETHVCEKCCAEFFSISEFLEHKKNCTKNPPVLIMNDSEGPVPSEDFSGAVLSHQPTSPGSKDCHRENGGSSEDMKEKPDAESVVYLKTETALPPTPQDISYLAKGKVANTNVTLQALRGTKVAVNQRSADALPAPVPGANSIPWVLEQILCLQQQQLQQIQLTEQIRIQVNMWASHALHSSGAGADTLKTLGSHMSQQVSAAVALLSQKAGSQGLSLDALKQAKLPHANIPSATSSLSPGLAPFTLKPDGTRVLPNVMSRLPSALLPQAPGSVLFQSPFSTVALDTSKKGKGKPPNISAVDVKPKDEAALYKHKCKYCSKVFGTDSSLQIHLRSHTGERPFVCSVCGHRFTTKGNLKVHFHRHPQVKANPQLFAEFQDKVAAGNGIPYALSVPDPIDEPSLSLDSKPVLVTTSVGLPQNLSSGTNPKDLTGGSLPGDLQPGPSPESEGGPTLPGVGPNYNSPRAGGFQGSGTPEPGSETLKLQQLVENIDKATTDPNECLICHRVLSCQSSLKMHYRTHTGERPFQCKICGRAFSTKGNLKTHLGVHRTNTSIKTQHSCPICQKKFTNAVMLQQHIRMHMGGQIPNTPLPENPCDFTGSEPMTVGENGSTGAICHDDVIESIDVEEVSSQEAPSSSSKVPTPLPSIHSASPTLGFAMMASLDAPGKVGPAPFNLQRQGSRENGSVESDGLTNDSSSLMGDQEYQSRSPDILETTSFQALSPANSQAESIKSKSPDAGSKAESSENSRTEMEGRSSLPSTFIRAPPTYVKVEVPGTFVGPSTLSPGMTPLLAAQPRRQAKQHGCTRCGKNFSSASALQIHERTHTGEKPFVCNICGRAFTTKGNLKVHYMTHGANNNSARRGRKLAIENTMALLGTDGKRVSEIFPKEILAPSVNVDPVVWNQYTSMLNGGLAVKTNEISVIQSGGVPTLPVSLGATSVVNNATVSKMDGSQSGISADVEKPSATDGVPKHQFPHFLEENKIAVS
Method: universal PBM
Form: double-stranded DNA, one strand shown
Medium: in vitro
Concentration: 600 nM
Notes: 8-mer, flanks averaged, mean of replicates
Direction: higher = stronger binding
The E-score of `ATTGCTCC` is reported as -0.127.
With `CCACCCCG` the E-score was -0.16.
With `AGAAAGCC` the E-score was -0.0333.
`CGATGGCG` has an E-score of -0.317.
With `CCCATTAC` the E-score was -0.043.
`CAGGAACG` gave an E-score of -0.148.
`AGCCTTTG` gave an E-score of -0.101.
`GTTACTGA` gave an E-score of 0.174.
The E-score of `AAATCACG` is reported as 0.151.
`CCCCAACA` has an E-score of -0.157.
For `AAAGATGT`, the E-score was 0.205.
The E-score of `CATCTAGA` is reported as 0.0979.
`ACACGGAT` gave an E-score of 0.054.
For `AAACCTAA`, the E-score was 0.109.
With `GCTTAACC` the E-score was -0.108.
`AAATGTAG` has an E-score of 0.0783.
With `CCAGGAGA` the E-score was -0.134.
The E-score of `CTAGTCGC` is reported as -0.261.
For `CCTAAACG`, the E-score was -0.127.
With `CCGAAGAA` the E-score was -0.0634.
With `ACAACTGC` the E-score was -0.00713.
`AGCAGCAG` has an E-score of -0.145.
The E-score of `CCCAATGA` is reported as -0.0405.

Study 2
Target: ABI1, truncated, D143A, DHFR fusion (Arabidopsis thaliana)
Method: DHFR PCA, deep sequencing
Medium: yeast
Notes: methotrexate growth selection, single substitutions
Together with: (+)-ABA 0.11 µM
Relative to: wild-type fitted maximum
Direction: higher = stronger binding
Starting sequence: PYL1, truncated, DHFR fusion (Arabidopsis thaliana); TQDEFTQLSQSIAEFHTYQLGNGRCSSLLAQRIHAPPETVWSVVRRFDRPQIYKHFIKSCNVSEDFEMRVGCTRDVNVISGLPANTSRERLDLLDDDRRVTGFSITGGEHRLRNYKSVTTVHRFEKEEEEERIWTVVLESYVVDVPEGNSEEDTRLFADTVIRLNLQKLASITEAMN; partner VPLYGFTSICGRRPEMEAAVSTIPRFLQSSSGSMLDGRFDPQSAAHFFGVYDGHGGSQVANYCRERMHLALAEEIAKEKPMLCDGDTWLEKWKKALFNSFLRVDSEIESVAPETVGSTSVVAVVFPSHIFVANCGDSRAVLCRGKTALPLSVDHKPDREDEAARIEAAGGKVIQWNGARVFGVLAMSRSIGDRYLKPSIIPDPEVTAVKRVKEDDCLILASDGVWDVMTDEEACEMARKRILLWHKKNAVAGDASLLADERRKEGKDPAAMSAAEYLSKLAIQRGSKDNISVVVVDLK
`N177A`: “relative binding score” 58.9%.
`I133K` — result for “relative binding score”: 17.1%.
`K168S` — result for “relative binding score”: 29.4%.
For `Q31C`, “relative binding score” read 4.87%.
Under “relative binding score”, `P37G` is recorded as -2.58%.
Under “relative binding score”, `R111W` is recorded as -0.741%.
For `M176K`, “relative binding score” read 14.1%.
`G108Q`: “relative binding score” -2.16%.
`M176E`: “relative binding score” 9.78%.
`R24Q`: “relative binding score” 59.6%.
`L82H`: “relative binding score” 32.8%.

Study 3
Target: CCNE2, cyclin fold, Cln2 fusion (human)
Method: yeast growth competition, sequencing
Medium: yeast
Notes: strong parent motif
Relative to: not given
Direction: higher = stronger binding
Starting sequence: CDKN1A docking peptide (human); SKACRRLFGPVDS; partner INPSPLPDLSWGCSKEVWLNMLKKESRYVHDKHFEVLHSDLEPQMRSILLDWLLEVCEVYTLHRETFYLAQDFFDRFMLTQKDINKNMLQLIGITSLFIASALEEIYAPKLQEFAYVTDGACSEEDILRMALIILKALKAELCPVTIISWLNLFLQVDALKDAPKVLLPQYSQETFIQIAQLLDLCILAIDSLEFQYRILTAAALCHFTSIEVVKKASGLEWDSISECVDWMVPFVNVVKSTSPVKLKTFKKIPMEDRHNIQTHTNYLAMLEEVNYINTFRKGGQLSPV
Under “normalised enrichment score”, `SKACGRLFGPVDS [R5G]` is recorded as 0.149.
`SKACRRLWGPVDS [F8W]` — result for “normalised enrichment score”: 2.38.
`SKACRRTFGPVDS [L7T]` — result for “normalised enrichment score”: 0.141.
For `SKACRRLFGKVDS [P10K]`, “normalised enrichment score” read 2.47.
Under “normalised enrichment score”, `SKACRRLFGPADS [V11A]` is recorded as 3.82.
Under “normalised enrichment score”, `SKACRRLFGPVQS [D12Q]` is recorded as 2.96.
Under “normalised enrichment score”, `SKACRRLFGPVVS [D12V]` is recorded as 2.97.
For `SKACRSLFGPVDS [R6S]`, “normalised enrichment score” read 0.935.
Under “normalised enrichment score”, `SKANRRLFGPVDS [C4N]` is recorded as 0.635.
`SKACRRLFLPVDS [G9L]`: “normalised enrichment score” 3.81.
`SKACRRLFEPVDS [G9E]` — result for “normalised enrichment score”: 4.77.
`SKFCRRLFGPVDS [A3F]` — result for “normalised enrichment score”: 1.18.
For `SKACRRLFGPVIS [D12I]`, “normalised enrichment score” read 2.69.
`SKACRRLYGPVDS [F8Y]` — result for “normalised enrichment score”: 0.411.
`SKAIRRLFGPVDS [C4I]` — result for “normalised enrichment score”: 1.63.
For `SKACRRLVGPVDS [F8V]`, “normalised enrichment score” read 0.694.
For `SGACRRLFGPVDS [K2G]`, “normalised enrichment score” read 4.8.
For `SKACRVLFGPVDS [R6V]`, “normalised enrichment score” read 3.25.
For `SKACDRLFGPVDS [R5D]`, “normalised enrichment score” read -0.555.
Under “normalised enrichment score”, `SKACPRLFGPVDS [R5P]` is recorded as -0.143.

Study 4
Target: Centromere-binding protein 1, full length, N-terminal tag (CBF1, Saccharomyces cerevisiae, UniProt P17106, residues 1-351)
Sequence of UniProt P17106 (whole entry, looked up): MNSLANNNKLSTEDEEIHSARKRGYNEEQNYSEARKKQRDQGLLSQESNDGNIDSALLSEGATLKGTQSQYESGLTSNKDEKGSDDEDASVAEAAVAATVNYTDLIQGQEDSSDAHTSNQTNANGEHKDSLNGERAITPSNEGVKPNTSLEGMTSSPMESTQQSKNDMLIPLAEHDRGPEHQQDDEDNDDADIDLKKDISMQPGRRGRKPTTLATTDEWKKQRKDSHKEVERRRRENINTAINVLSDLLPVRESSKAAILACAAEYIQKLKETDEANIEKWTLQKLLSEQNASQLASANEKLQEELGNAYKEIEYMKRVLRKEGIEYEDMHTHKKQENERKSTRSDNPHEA
Method: protein-binding microarray
Form: double-stranded DNA, one strand shown
Medium: in vitro
Concentration: 0.8 µM
Notes: whole 60-bp probe, no competitor
Direction: higher = stronger binding
Constant ends, left off below: … GTCTTGATTCGCTTGACGCTGCTG
With `GAATGACATCATTCTCATCAGACATACAGAAACTAG` the fluorescence intensity was 533 a.u.
The fluorescence intensity of `CTACGGCGGACGTGTCACCCGGACCGAAACAGATTC` is reported as 480 a.u.
`CTAGTGTGCAGCCACGTGCGGATGAATAATAAATTC` gave a fluorescence intensity of 3900 a.u.
With `CTAACGGCATGTCAACAGGTGAGTGCCTTTTGATTC` the fluorescence intensity was 479 a.u.
The fluorescence intensity of `CTAAGGGTAAAAGATCACGAATAAAAAACGAACTTC` is reported as 559 a.u.
`CTAATAACACTAACGCACGCTAGAAATGATAGCTTC` has a fluorescence intensity of 539 a.u.
The fluorescence intensity of `GAAATAAAAGAAAGCATCACCATGTAATGAAATTAG` is reported as 512 a.u.
For `CTATGCTGGTGAGGTGGCGTGGACGGTTTGGTTTTC`, the fluorescence intensity was 572 a.u.
For `CCTAACTACTATAATCATGTGATATAGCTTCGTACA`, the fluorescence intensity was 3550 a.u.
The fluorescence intensity of `TGTACGAAGCTATAGCACGGGCGTATAGTAGTTAGG` is reported as 576 a.u.
`GAACAGTAAATTCATGATGTGCCTATGAATATGTAG` has a fluorescence intensity of 506 a.u.
With `CTAATCAATGAATGACATCAGATAAAACGAAAGTTC` the fluorescence intensity was 552 a.u.
`CTAACAATGAATACATGTGATATAGATACTTAATTC` gave a fluorescence intensity of 1580 a.u.
`GAAGACTGATTATGACGTCGGATCCTATGACAATAG` gave a fluorescence intensity of 531 a.u.
For `CCTAACTACTATAAGCACGATCAATAGCTTCGTACA`, the fluorescence intensity was 535 a.u.
